Published values collected from several papers.
Compare with care: the assays were run in different laboratories.
Cell line: THP-1

Oc1ccc(/C=C/c2cc(O)cc(O)c2)cc1
EC50 (antioxidant effect, OPT fluorometric glutathione, item: redox index GSH/total glutathione; cell extract): 1.85 µM

Cc1cccc2c(=O)c3cccc(CC(=O)O)c3oc12
IRF3 activation (IRF3 luciferase reporter; up to 1 mM, 4 h, with: c-di-GMP): inactive

COc1c(OC)c(O)c2c(=O)cc(-c3ccc(O)cc3)oc2c1OC
Emax of redox index (antioxidant effect, OPT fluorometric glutathione, item: GSH/(GSH + GSSG); cell extract; reference: 1 = all glutathione reduced, higher = more antioxidant): 0.93

O=C(Nc1nc2ccccc2n1CCN1CCOCC1)c1cccc([N+](=O)[O-])c1
IC50 (TNF-α production, HTRF; 17 h, with: 1 µg/mL LPS): 2.76 µM

O=C1c2cccc(O)c2C(=O)c2c(O)cc(CO)cc21
IC50 (cell growth or viability, ATP luminescence; 24 h): 450 µM

Cc1ccc(S(=O)(=O)/C=C/C#N)cc1
IC50 (TNF-alpha production, inhibitor; with: LPS): 1.2 µM

O=c1cc(-c2ccccc2)oc2cc(O)cc(O)c12
IC50 (cell growth or viability, ATP luminescence; 24 h): 500 µM

O=C(O)c1cc(/N=N/c2ccc(S(=O)(=O)Nc3ccccn3)cc2)ccc1O
reporter gene activation (inhibitor, tdTomato flow cytometry; high, with: 2'3'-cGAMP or RR CDA): inhibited

Cc1cccc2oc3c(CC(=O)O)cccc3c(=O)c12
IRF3 activation (IRF3 luciferase reporter; up to 1 mM, 4 h, with: c-di-GMP): inactive

CCCC1(C)C(C#N)(C#N)C1(C#N)C#N
IC50 (TNF-α release, inhibitor, ELISA; 17 h, LPS-stimulated): 0.66 µM

Cc1cc(O)c2c(c1)C(=O)c1cc(O)cc(O)c1C2=O
IC50 (cell growth or viability, ATP luminescence; 24 h): 10 µM

CC(C)(C)c1ccc(S(=O)(=O)/C=C/C#N)cc1
IC50 (TNF-α production, HTRF; 17 h, with: 1 µg/mL LPS): 1.43 µM

COc1ccc(-c2cc(=O)c3cc(OC)ccc3o2)c(OC)c1
EC50 (antioxidant effect, OPT fluorometric glutathione, item: redox index GSH/total glutathione; cell extract): 3.79 µM

For quick reference, copied from above:
Cc1cccc2c(=O)c3cccc(CC(=O)O)c3oc12
IRF3 activation (IRF3 luciferase reporter; up to 1 mM, 4 h, with: c-di-GMP): inactive
